Measured values of several laboratories.
Each line is one published result; not all experiments were run side by side. Converted amounts (≈) assume the structure as drawn.

`CCN(CC)CC(=O)Nc1cccc(-n2cc(-c3ccc4ccc(-c5cn(-c6cccc(NC(=O)CN(CC)CC)c6)nn5)cc4c3)nn2)c1` has a fold regulation of -1.52 (RCC4; PCR angiogenesis array, item: FGF1; 5 x IC50, 6 h, normoxia; baseline: untreated).
With `C=C(NC(=O)c1csc(-c2nc3c(cc2O)-c2nc(cs2)C(=O)NC(C(C)O)C(=O)NC(=C(C)OC)c2nc(cs2)C(=O)NC2c4nc(cs4)C(=O)NC(COC(=O)c4c5c6c(cccc6n4O)COC(=O)C(OC4CC(C)(O)C(N(C)C)C(C)O4)C2OC5)c2nc-3cs2)n1)C(N)=O` (centres unmarked) the MIC90 was 7.8 ng/mL (≈ 5.43 nM) (Streptococcus pneumoniae; microbial growth; PRSP; clinical isolate).
With `CNS(=O)(=O)Nc1nccc(Cc2c(C)c3ccc(Oc4ncccc4F)cc3oc2=O)c1F` the IC50 was 0.631 µM (Rec1; cell viability; 7 days).
`C=CC(=O)Nc1cccc(Cn2ncc3cnc(Nc4cnn(CCOC)c4)nc32)c1`: “percent of control” 98% (PAK6 human; binding, KINOMEscan; 100 nM; lower = stronger binding).
`COC1CN([C@H]2CC[C@H]([C@@]3(C)Oc4c(Cl)cc(C(=O)NCc5c(SC)cc(C)[nH]c5=O)c(C)c4O3)CC2)C1`: “log2 fold change” 1.59 (RNA-seq, item: PXDC1 mouse homolog; mouse, HT-1376 xenograft, whole blood; dose not given; baseline: vehicle).
`Cc1ncsc1-c1ccc(C(C)NC(=O)C2CC(O)CN2C(=O)C(NC(=O)CCCCCCCCCCN2CCCC(Nc3ncc(Cl)c(Nc4ccccc4S(=O)(=O)C(C)C)n3)C2)C(C)(C)C)cc1` (centres unmarked): “log2 fold change” -1.48 (22Rv1; RNA-seq, item: MAST3 mRNA; concentration not given; baseline: DMSO).
`CN1CCCNC(=O)c2cccc(c2)C(=O)NCCCN(C)CCCNc2cccc3c2C(=O)c2cccc(c2C3=O)NCCC1`: “log2 fold change” 2.95 (SAS; RNA-Seq, item: LINC00862 mRNA; 1 µM, 6 h; baseline: untreated cells).
`Nc1ncc(-c2cc(-c3cnn(CC(F)(F)F)c3)ncc2F)nc1C(=O)NC1CNCC(F)C1` (centres unmarked) gave a remaining binding of 73% (PKAC-beta; KINOMEscan competition binding; 1 µM; baseline: DMSO control).
